Experimental data pooled from the literature.
Compare with care: the assays were run in different laboratories. Several values in a cell are separate wells, animals, samples, runs or records. ± gives the spread as reported.

| Structure (SMILES) | assay | system | conditions | scale | quantity | result |
| --- | --- | --- | --- | --- | --- | --- |
| CCCCCn1cc(C(=O)Nc2cccc3ccccc23)c2ccccc21 | – | rat liver microsomes | scaled to whole liver | – | scaled intrinsic clearance | 564 mL/min/kg |
| O=C(O)CCCO | – | male Sprague-Dawley rat | intravenous, 600 mg/kg daily for 5 days, day 5 | – | respiratory frequency | no effect |
| O=C(O)c1cn(Cc2cccc(Cl)c2)c2ccccc12 | – | F344 rat, male, serum | oral, 150 mg/kg/day, 2 days, group mean | – | alanine aminotransferase | 69 U/L |
| CCN(CC)C(=O)[C@@H]1C=C2c3cccc4[nH]cc(c34)C[C@H]2N(C)C1 | refers to: impaired balance | healthy volunteers | dose not given, 0 to 12 h | reference: placebo, direction not given | List of Complaints score | 9 |
| C[C@]12CC[C@H]3[C@@H](CCC4=CC(=O)CC[C@@]43C)[C@@H]1CC[C@@H]2O | – | cryopreserved SD rat hepatocytes | 1 µM | – | scaled intrinsic clearance | 1110 mL/min/kg |
| C=C1C[C@H]2[C@@H]3CC[C@H](O[C@@H]4O[C@H](C(=O)O)[C@@H](O)[C@H](O)[C@H]4O)[C@@]3(C)CC[C@@H]2[C@@]2(C)C=CC(=O)C=C12 | – | human, postmenopausal women, serum | oral, 25 mg daily, 1 year, UGT2B17 and GSTA1 genotypes | – | serum concentration | 61 nM |
| O=C1c2c(O)c(=O)ccn2N([C@@H]2c3ccccc3SCc3c2ccc(F)c3F)[C@@H]2COCCN12 | – | BALB/c mice, plasma | oral, 15 mg/kg baloxavir marboxil, 2 h | – | plasma concentration | 104 ng/mL |
| O=C1CC[C@H](N2Cc3cc(N4CCN(CC5CCN(c6ccc([C@@H]7c8ccc(O)cc8CC[C@@H]7c7ccccc7)cc6)CC5)CC4)ccc3C2=O)C(=O)N1 | refers to: Influenza | human | oral, 200 mg, with: dabigatran etexilate 75 mg | – | participants with adverse event | 4.2% |
| O=C(O)CCC(CP(=O)(O)O)C(=O)O (stereo not drawn) | – | Wistar rat, male, sciatic nerve | ip, 100 mg/kg | – | Tmax | 15 min |
| COc1cc2c(Oc3ccc4[nH]c(C)cc4c3F)ccnc2cc1OCC1(N)CC1 | – | paediatric refractory sarcoma patients | 10 mg | – | influenza-like illness incidence | 25% |
| CCC(CC)COC(=O)[C@H](C)N[P@](=O)(OC[C@H]1O[C@@](C#N)(c2ccc3c(N)ncnn23)[C@H](O)[C@@H]1O)Oc1ccccc1 | – | human | – | – | plasma half-life | ~60 min |
| C=C1C[C@H]2[C@@H]3CC[C@H](O)[C@@]3(C)CC[C@@H]2[C@@]2(C)C=CC(=O)C=C12 | – | human, postmenopausal women, serum | dose not given, GSTA1 genotype effect | – | serum level | no effect |
| C[C@]12CC[C@H]3[C@@H](CCC4=CC(=O)CC[C@@]43C)[C@@H]1CC[C@@H]2O | – | mouse liver microsomes | – | – | scaled hepatic intrinsic clearance | 1260 mL/min/kg and 838 mL/min/kg |
| Cc1ncc2n1-c1ccc(Cl)cc1C(c1ccccc1F)=NC2 | – | wild-type mice, plasma | intravenous, 0.3 mg/kg, with: 14-day BC 500 mg/kg | – | AUC(0-inf) | 0.103 ± 0.0189 µM·h |
| Cc1ncc(OC[C@@]2(c3cccc(F)c3)C[C@H]2C(=O)Nc2ccc(F)cn2)c(C)n1 | population PK base model | human, plasma | oral | – | V3/F | 223 L |
| OCc1ncc2n1-c1ccc(Cl)cc1C(c1ccccc1F)=NC2 | – | healthy volunteers, plasma | dose not given, with: momelotinib | reference: with momelotinib over alone | Cmax geometric mean ratio | 86% |
| C[C@H]1CN(C(=O)CC#N)[C@]12CCN(c1ncnc3[nH]ccc13)C2 | – | human | oral, 1.5 mg single dose | – | participants with influenza-like illness | 0% |
| C#Cc1ccc2c(c1)C(c1ccccn1)=NCc1c(-c3cnco3)ncn1-2.Cl | thermodynamic equilibrium, UV | ethyl acetate | 24 h, 25 °C | – | solubility | 224 µg/mL |
| CCCCCCCCCCC(=O)O[C@H]1CC[C@H]2[C@H]3[C@H]([C@@H](C)C[C@]12C)[C@H]1CCC(=O)C=C1C[C@H]3C | – | human serum | 300 ng/mL, NaF 25.0 mg/mL | – | DMA level | not detected |
| COc1ccc2[nH]cc(CCN(C)C)c2c1 | – | 1-octanol/phosphate buffer | pH 7.4 | – | distribution coefficient | 3.3 |
| COc1cccc(C2(O)CCCCC2CN(C)C)c1 (stereo not drawn) | joint PK model | human, whole blood | oral, dose not given, two-compartment metabolite model | – | central volume | 0.429 L |
| CCCC(C(=O)c1ccc(O)c(O)c1)N1CCCC1 (stereo not drawn) | – | rat, plasma | subcutaneous, dose not given, after MDPV dosing, median | – | conjugated fraction | 88.1% |
| CC(C)C[C@@H]1NC(=O)[C@H](C)N(C)C(=O)[C@H](Cc2ccccc2)NCc2cc(cn2C)CNC1=O | PAMPA | lecithin in dodecane | 100 µM, 17 h, pH 6.4, 37 °C | – | -log Pe | 6.61 |
| C[C@]12CC[C@H]3[C@@H](CCC4=CC(=O)CC[C@@]43C)[C@@H]1CC[C@@H]2O | – | CD-1 mouse liver microsomes | 1 µM, pH 7.4 | – | scaled CLint | 1660 mL/min/kg |
| OCc1ncc2n1-c1ccc(Cl)cc1C(c1ccccc1F)=NC2 | refers to: 1'-hydroxymidazolam | wild-type mice, plasma | iv, 500 mg/kg, 3 days, with: midazolam 0.3 mg/kg, phenobarbital, 10 mg/kg pregnenolone 16α-carbonitrile | – | Cmax | 91 ± 30 nM |
| CCCCCCC#Cc1cncc(-c2nnc(SCc3ccc([N+](=O)[O-])o3)n2C2CC2)c1 | – | human liver microsomes | microsomal stability | – | t1/2 | 1.9 min |
| CN/C(=N\[N+](=O)[O-])NCc1cnc(Cl)s1 | – | soil | 0 days, nominal 3.3 | – | concentration | 2.3 mg/kg dry soil |
| COc1ccc2c(c1)[C@]13CCCC[C@@H]1[C@H](C2)N(C)CC3 | – | Sprague-Dawley rat, male | – | – | unbound intrinsic clearance | 1410 mL/min/kg |
| CCCCCCC#Cc1cncc(-c2nnc(SCc3cc([N+](=O)[O-])cc([N+](=O)[O-])c3)n2C)c1 | – | mouse liver microsomes | microsomal stability | – | t1/2 | 4.8 min |
| Cc1ncc2n1-c1ccc(Cl)cc1C(c1ccccc1F)=NC2 | – | human, plasma | intravenous bolus, 3 µg, mean of subjects | – | clearance | 475 mL/min |

A few entries again:
| Structure (SMILES) | assay | system | conditions | scale | quantity | result |
| --- | --- | --- | --- | --- | --- | --- |
| O=C1CC[C@H](N2Cc3cc(N4CCN(CC5CCN(c6ccc([C@@H]7c8ccc(O)cc8CC[C@@H]7c7ccccc7)cc6)CC5)CC4)ccc3C2=O)C(=O)N1 | refers to: Influenza | human | oral, 200 mg, with: dabigatran etexilate 75 mg | – | participants with adverse event | 4.2% |
| C[C@H]1CN(C(=O)CC#N)[C@]12CCN(c1ncnc3[nH]ccc13)C2 | – | human | oral, 1.5 mg single dose | – | participants with influenza-like illness | 0% |
| C#Cc1ccc2c(c1)C(c1ccccn1)=NCc1c(-c3cnco3)ncn1-2.Cl | thermodynamic equilibrium, UV | ethyl acetate | 24 h, 25 °C | – | solubility | 224 µg/mL |
